Assay results pooled from the literature.
Numbered parts are unrelated; each lists some results of a single study. Changes are numbered by the printed parent chain.

Block 1
Target: RNA binding protein fox-1 homolog 2, RRM domain, GST-SBP tag (RBFOX2, Homo sapiens, UniProt O43251-10, residues 100-194)
Technique: RNA Bind-n-Seq
Form: RNA
Medium: in vitro
Concentration: 365 nM
Setting: natural RNA segment, single round, ends assumed
Relative to: no-protein control
Reading: higher = stronger binding
Target sequence (chain): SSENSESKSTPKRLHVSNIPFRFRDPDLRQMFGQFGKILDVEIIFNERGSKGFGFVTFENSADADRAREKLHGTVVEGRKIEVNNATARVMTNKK
Sequence | RBNS enrichment (R)
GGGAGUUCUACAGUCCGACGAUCCUCGGGAAAGCAAAGAAGCUGCUUUAAAAAAUAAAAAGGGGACUAAAAAUUUGUUUUGUAUAAAGAGGUUAGCCCUGCGCACGUAGGACUGAAUUCAGUGAUAUCCCUAUUGGAAUUCUCGGGUGCCAA | 1.96
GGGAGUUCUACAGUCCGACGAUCCUGUCUUUCAUGGCUGAAAACAAAAGUAAUGGGAAUUUUAAAUACGUUUGCAGAAACUGCCCCUCCCCUCAUUGAGGGUCACUGCUCAAGAGUGCAGGAGUGGACUCUCCUGGAAUUCUCGGGUGCCAA | 0.478
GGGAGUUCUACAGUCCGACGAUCCAUCGCUAUUUUAUAUUAAAAUGUAAUGAUCAGCAUCAUGAACAAUGAGCUCUUAGUGUUUUAUUUAUCUGAAAAAAUGUAAGUAAAAGCAGUGUUAGUGAGAGGUGCAAUGGAAUUCUCGGGUGCCAA | 1.7
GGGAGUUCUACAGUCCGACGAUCAGAGCCACACCCAUGCCAUUACUGUAACAUUCCAACAUCUCCAUCUGACCUGACCUCCAUAUCUUCUCUUGCCAGCCUUUCCCUAUGCUCCCUCAAAUAUGUAUCUGAUGUGGAAUUCUCGGGUGCCAA | 1.39
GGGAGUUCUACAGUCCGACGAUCUCUCCCUUAGUAACUUGAAGGAAGCUUUGCAAGGGUGUUUCUCUGGAAUGGGUUCUGUGUUUGAAAGCUGUUAGAACACUAACCAGCAGGUUACUUCUCUCCGCAGGGGCUGGAAUUCUCGGGUGCCAA | 0.609
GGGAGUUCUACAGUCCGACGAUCGAUUGUAAGCAGGGAGGAAACCUCUGCAGCUCAUUCUGCCACUGCAAAGCUGGUGUAGCCAUGCUGGUGAGAAAAAUCCUGUUCAACCUGGGUUCUCCCAGUUACGGAAAUGGAAUUCUCGGGUGCCAA | 0.232
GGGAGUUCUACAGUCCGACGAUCACCCCAAACCUGUUUUGUACUUAGAGACUGGCUUUGGUCAGUAGUUCACUGUGGAGACAAUGACAGUAUUCUCUGUGCCAGUGUCGCUGAUGGAGCUCCCCCUCCCCACAUGGAAUUCUCGGGUGCCAA | 0.51
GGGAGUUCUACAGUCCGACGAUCGUUUCCCACCUGACUCUACUAUACUCUUCCUGAUCACCAUGUGGCCUAAGAAUAUAUACUAUGGAGUCUAUGGACCACUGUAGAGAAGUUUUUAGUCUAGCCUGUUUGAUUGGAAUUCUCGGGUGCCAA | 0.372

Block 2
Target: CCNF, cyclin fold, Cln2 fusion (human)
Technique: yeast growth competition, sequencing
Medium: yeast
Setting: strong parent motif
Relative to: not given
Reading: higher = stronger binding
Starting sequence: ORC1 docking peptide (human); PRARKRLELGNLG
Substitution | normalised enrichment score
K5T | 1.01
N11K | 2.45
E8P | 1.65
A3W | 2.06
P1A | 3.13
E8Y | 3.94

Block 3
Target: Histone acetyltransferase KAT6A, winged helix 2, GST fusion (KAT6A, Homo sapiens, UniProt Q92794, residues 85-181)
Technique: protein binding microarray
Form: double-stranded DNA, one strand shown
Medium: in vitro
Concentration: not given
Setting: 8-mer, flanks averaged, mean of 2 arrays, mostly near background
Relative to: not given
Reading: higher = stronger binding
Target sequence (chain): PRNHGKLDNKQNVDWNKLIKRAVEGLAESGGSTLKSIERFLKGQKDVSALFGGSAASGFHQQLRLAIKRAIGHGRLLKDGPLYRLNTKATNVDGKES
Sequence | E-score
GAGAATCC | 0.158
GCACCGTA | 0.11
AATGTGGT | -0.129
CTCGCATA | -0.0677
ACCGACAA | -0.014
CTTGAAGA | -0.0735
AAAACACG | 0.18

Further values, each from its own experiment
Substance | target | test | test system | setting | scale | quantity | value
PhoQ, residues 284 288 289 292 302 303 MLMVEA | PhoP, residues 12 14 15 18 19 SGWQI (Escherichia coli, UniProt P23836) | Sort-seq, refers to: YFP reporter | E. coli | PhoQ-PhoP variant library, with: 10 µM Mg2+ | relative to: high Mg2+ state, higher = stronger signaling | fold induction | 4.44

Some of these lines once more (block 1):
Sequence | RBNS enrichment (R)
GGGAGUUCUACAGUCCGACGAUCAGAGCCACACCCAUGCCAUUACUGUAACAUUCCAACAUCUCCAUCUGACCUGACCUCCAUAUCUUCUCUUGCCAGCCUUUCCCUAUGCUCCCUCAAAUAUGUAUCUGAUGUGGAAUUCUCGGGUGCCAA | 1.39
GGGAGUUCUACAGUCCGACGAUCUCUCCCUUAGUAACUUGAAGGAAGCUUUGCAAGGGUGUUUCUCUGGAAUGGGUUCUGUGUUUGAAAGCUGUUAGAACACUAACCAGCAGGUUACUUCUCUCCGCAGGGGCUGGAAUUCUCGGGUGCCAA | 0.609
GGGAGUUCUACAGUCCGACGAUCGAUUGUAAGCAGGGAGGAAACCUCUGCAGCUCAUUCUGCCACUGCAAAGCUGGUGUAGCCAUGCUGGUGAGAAAAAUCCUGUUCAACCUGGGUUCUCCCAGUUACGGAAAUGGAAUUCUCGGGUGCCAA | 0.232
